Results gathered from unrelated publications.
Compare with care: the assays were run in different laboratories. Several values in a cell are separate wells, animals, samples, runs or records. Numbers after ± are the reported error.

Structure (SMILES) | cell line | assay | system | conditions | how to read | endpoint | value
CC(C)(Cc1c[nH]c2ccccc12)NCC(O)COc1ccccc1C#N (stereo not shown) | African green monkey cells |  |  | 5 days |  | CC50 | 30.9 µM
Nc1nc2c(ncn2[C@@H]2O[C@@H]3COP(=O)(O)O[C@H]4[C@@H](O)[C@H](n5cnc6c(=O)[nH]c(N)nc65)O[C@@H]4COP(=O)(O)O[C@H]3[C@H]2O)c(=O)[nH]1 | HFF-1 |  |  | 0.1 µg/mL |  | viability | 90.1%
CC(C)C[C@H](NC(=O)[C@H](CCCCN)NC(=O)[C@H](CCCCN)NC(=O)[C@H](CC(C)C)NC(=O)[C@H](CC(C)C)NC(=O)[C@H](CC(C)C)NC(=O)[C@H](CC(C)C)NC(=O)[C@H](CC(C)C)NC(=O)[C@H](CCCCN)NC(=O)[C@H](CCCCN)NC(=O)[C@@H](N)CC(C)C)C(=O)NCC(=O)NCC(=O)NCC(=O)N[C@@H](Cc1c[nH]c2ccccc12)C(=O)N[C@@H](CCCCN)C(=O)N[C@H](C(=O)N[C@@H](CC(N)=O)C(=O)N[C@@H](CCCCN)C(=O)N[C@@H](Cc1ccc(O)cc1)C(=O)NCC(=O)N[C@H](C(=O)N[C@@H](CC(C)C)C(=O)N[C@@H](Cc1ccc(O)cc1)C(=O)O)[C@@H](C)O)[C@@H](C)O | human red blood cells |  |  | 1 h, 37 °C, 10% hemolysis |  | lowest hemolytic concentration | > 256 µg/mL
CNCc1ccc(C)c(NC(=O)c2ccc(Nc3nc(-c4ccccc4)c4ccccc4n3)cc2)c1 | African green monkey cells |  |  | 5 days |  | CC50 | 3.09 µM
CC(C)C[C@H](NC(=O)[C@H](CCCCN)NC(=O)[C@H](CC(C)C)NC(=O)[C@H](CC(C)C)NC(=O)CNC(=O)[C@H](CCCCN)NC(=O)[C@H](CC(C)C)NC(=O)[C@H](CCCCN)NC(=O)CNC(=O)[C@H](CC(C)C)NC(=O)[C@H](CC(C)C)NC(=O)[C@H](CCCCN)NC(=O)[C@@H](N)CC(C)C)C(=O)O | human red blood cells |  |  | 1 h, 37 °C, 10% hemolysis |  | lowest hemolytic concentration | > 256 µg/mL
CNCC(O)CC12CCC(c3ccccc31)c1ccccc12 (stereo not shown) | African green monkey cells |  |  | 5 days |  | CC50 | 28.2 µM
CC(C)C[C@H](NC(=O)[C@H](CCCNC(=N)N)NC(=O)[C@H](CCCNC(=N)N)NC(=O)[C@H](CCCNC(=N)N)NC(=O)[C@@H]1CCCN1C(=O)[C@H](Cc1ccccc1)NC(=O)[C@H](Cc1ccc(O)cc1)NC(=O)[C@H](CCCNC(=N)N)NC(=O)[C@H](Cc1ccc(O)cc1)NC(=O)[C@@H](NC(=O)[C@H](CC(C)C)NC(=O)[C@H](Cc1ccc(O)cc1)NC(=O)[C@H](CCCNC(=N)N)NC(=O)[C@H](Cc1c[nH]cn1)NC(=O)[C@@H]1CCCN1C(=O)[C@H](Cc1c[nH]c2ccccc12)NC(=O)[C@H](Cc1ccc(O)cc1)NC(=O)[C@H](Cc1ccccc1)NC(=O)[C@@H]1CCCN1C(=O)[C@H](CCC(N)=O)NC(=O)[C@H](Cc1ccccc1)NC(=O)[C@@H]1CCCN1C(=O)[C@H](Cc1ccccc1)NC(=O)[C@H](CCCNC(=N)N)NC(=O)[C@H](Cc1c[nH]cn1)NC(=O)[C@H](CC(N)=O)NC(=O)[C@H](CS)NC(=O)[C@H](CCCNC(=N)N)NC(=O)[C@H](CO)NC(=O)[C@@H]1CCCN1C(=O)[C@@H](NC(=O)[C@H](Cc1ccccc1)NC(=O)[C@@H]1CCCN1C(=O)[C@@H](N)CCCNC(=N)N)C(C)C)[C@@H](C)O)C(=O)N[C@@H](CCC(N)=O)C(=O)N[C@@H](CCCNC(=N)N)C(=O)O | human red blood cells | hemolysis |  |  |  | HC50 | 10.1 µmol/L
CN(C(=O)n1cnc(-c2ccc[n+]([O-])c2)c1)C1CCCCC1 | COS-7 expressing human FAAH |  | culture supernatant | 100 nM, 1 h |  | concentration | 100.5 ± 1 nM
O=S(=O)(O)c1nc2ccccc2s1 | rat hepatoma cells | cell viability |  | 24 h, freely dissolved concentration |  | IC10 | 1290 µM
CC(C)C[C@H](NC(=O)CNC(=O)[C@H](CC(C)C)NC(=O)[C@H](CC(C)C)NC(=O)[C@H](CC(C)C)NC(=O)[C@H](CCCCN)NC(=O)[C@@H](N)CCCCN)C(=O)NCC(=O)N[C@@H](CC(C)C)C(=O)N[C@@H](CC(C)C)C(=O)N[C@@H](CC(C)C)C(=O)N[C@@H](CCCCN)C(=O)N[C@@H](CCCCN)C(=O)O | HEK-293T cells | CCK-8 |  | 4 h, 37 °C, 10% cell death |  | lowest cytotoxic concentration | 256 µg/mL
O=C1NCN(c2ccccc2)C12CCN(CCCC(c1ccc(F)cc1)c1ccc(F)cc1)CC2 | African green monkey cells |  |  | 5 days |  | CC50 | 7 µM
CC(=O)N[C@@H](CCCCN)C(=O)N[C@@H](C)C(=O)N[C@@H](CC(C)C)C(=O)N[C@@H](CC(C)C)C(=O)N[C@@H](CCCCN)C(=O)N[C@@H](CC(C)C)C(=O)N[C@@H](CC(C)C)C(=O)N[C@@H](CCCCN)C(=O)N[C@@H](CCCCN)C(=O)N1CCC[C@H]1C(=O)N[C@@H](CC(C)C)C(=O)N[C@@H](CCCCN)C(=O)N[C@@H](CC(C)C)C(=O)N[C@@H](CC(C)C)C(=O)N[C@@H](CCCCN)C(N)=O | human red blood cells | haemolysis |  | 6 h, 37 °C, 5% haematocrit in PBS |  | MHC10 | > 160 µM
Cc1cc(C(C)(C)c2ccc(O)c(C)c2)ccc1O | HepG2 spheroids, dissociated | annexin V-FITC/PI flow cytometry |  | 10 µM, 96 h |  | early apoptotic cells | 8.28 ± 9.2%
CCN(CC)CCOC1(c2ccccc2)CCN(CCNc2ccccc2)CC1 | African green monkey cells |  |  | 5 days |  | CC50 | 46.8 µM
CC(C)CC(=O)OC[C@H]1O[C@@](C#N)(c2ccc3c(N)ncnn23)[C@H](O)[C@@H]1O | monkey hepatocytes |  |  | 5 µM, 15 min |  | remaining compound | 0.448 ± 0.307%
CC(c1ccccc1)(c1ccc(O)cc1)c1ccc(O)cc1 | HepG2 spheroids | DNA strand breaks, comet |  | 24 h |  | lowest DNA strand break concentration | 40 µM
CN(CC[C@H](Oc1cccc2ccccc12)c1cccs1)N=O | TK6 expressing CYP2C19 |  |  | 0.25 µM, 4 h, without S9 | reference: vehicle | relative survival | 92.8%
CC(=O)N[C@@H](CCCCN)C(=O)N[C@@H](CCCCN)C(=O)N[C@@H](CC(C)C)C(=O)N[C@@H](CC(C)C)C(=O)N[C@@H](C)C(=O)N[C@@H](CC(C)C)C(=O)N[C@@H](CC(C)C)C(=O)N[C@@H](CCCCN)C(=O)N[C@@H](CCCCN)C(=O)N1CCC[C@H]1C(=O)N[C@@H](CC(C)C)C(=O)N[C@@H](CCCCN)C(=O)N[C@@H](CC(C)C)C(=O)N[C@@H](CC(C)C)C(=O)N[C@@H](CCCCN)C(N)=O | human red blood cells | haemolysis |  | 6 h, 37 °C, 5% haematocrit in PBS |  | MHC10 | > 160 µM
CC(=O)N[C@@H]1[C@@H](O[C@H](C)C(=O)N[C@@H](C)C(=O)N[C@H](CCC(=O)O)C(N)=O)[C@H](O)[C@@H](CO)O[C@H]1O | HFF-1 |  |  | 1 µg/mL |  | viability | 87.1%

Structure (SMILES) | cell line | assay | system | conditions | how to read | endpoint | value
CC(C)C[C@@H](NC(=O)CNC(=O)[C@@H](CCCCN)NC(=O)[C@@H](CC(C)C)NC(=O)[C@@H](CCCCN)NC(=O)[C@@H](CCCNC(=N)N)NC(=O)[C@@H](CC(C)C)NC(=O)[C@@H](CC(C)C)NC(=O)[C@@H](CCCNC(=N)N)NC(=O)[C@H](N)CCCNC(=N)N)C(=O)N[C@H](CCCCN)C(=O)N[C@H](CCCCN)C(=O)N[C@H](Cc1ccc(O)cc1)C(=O)N[C@H](CC(C)C)C(=O)N[C@H](Cc1ccc(O)cc1)C(=O)N[C@H](Cc1ccccc1)C(=O)N[C@H](CCCCN)C(=O)N[C@H](CC(C)C)C(=O)N[C@H](CCC(N)=O)C(=O)N[C@H](CC(C)C)C(=O)N[C@H](CC(C)C)C(=O)N[C@H](CCCCN)C(=O)N[C@H](CCCCN)C(N)=O | RAW264.7 | MTT |  | 64 µM, 48 h |  | viability | ~35%
CCCCCCCCCCCC(=O)N[C@H](CCC(=O)NC(CCCC(N)C(=O)O)C(=O)O)C(=O)O (stereo partly shown) | HFF-1 |  |  | 0.1 µg/mL |  | viability | 94.8%
Oc1ccc(C(c2ccc(O)cc2)(C(F)(F)F)C(F)(F)F)cc1 | HepG2 spheroids, dissociated | annexin V-FITC/PI flow cytometry |  | 0.01 µM, 96 h |  | viable cells | 42.2 ± 8.54%
C=CCn1c(=O)n([C@@H]2O[C@H](CO)[C@@H](O)[C@H]2O)c2nc(N)[nH]c(=O)c21 | HFF-1 |  |  | 1 µM, 48 h |  | viability | 87.7%
c1ccc2c(c1)ccc1c3ccccc3ccc21 | MCF7 AREc32 |  |  | highest tested |  | cytotoxicity | not toxic
CC(C)C[C@H](NC(=O)CNC(=O)CNC(=O)CNC(=O)[C@H](CC(N)=O)NC(=O)[C@@H](NC(=O)[C@@H]1CCCN1C(=O)[C@H](C)NC(=O)[C@@H]1CCCN1C(=O)[C@H](C)NC(=O)[C@H](Cc1ccc(O)cc1)NC(=O)[C@@H]1CCCN1C(=O)[C@H](C)NC(=O)[C@H](CC(C)C)NC(=O)[C@H](CO)NC(=O)[C@@H](N)Cc1ccccc1)C(C)C)C(=O)N[C@@H](CCCCN)C(=O)N[C@@H](CCCCN)C(=O)N[C@@H](CC(C)C)C(=O)N[C@@H](CC(C)C)C(=O)N[C@@H](CC(C)C)C(=O)N[C@@H](CC(C)C)C(=O)N[C@@H](CC(C)C)C(=O)N[C@@H](CCCCN)C(=O)N[C@@H](CCCCN)C(=O)N[C@@H](CC(C)C)C(=O)NCC(=O)O | HEK-293T cells | CCK-8 |  | 4 h, 37 °C, 10% cell death |  | lowest cytotoxic concentration | 256 µg/mL
Nc1nc2c(ncn2[C@@H]2O[C@@H]3COP(=O)(O)O[C@H]4[C@@H](O)[C@H](n5cnc6c(N)ncnc65)O[C@@H]4COP(=O)(O)O[C@H]3[C@H]2O)c(=O)[nH]1 | HFF-1 |  |  | 100 µg/mL |  | viability | 85.1%
Cc1ccc(OCCc2cc(F)cc(F)c2)c(C(N)=O)c1 | HepG2 |  |  | 3 (unit not given) | reference: CC50 glucose over CC50 galactose | selectivity ratio | < 1
CC(=O)N[C@@H](CC(C)C)C(=O)N[C@@H](CC(C)C)C(=O)N[C@@H](CCCCN)C(=O)N[C@@H](CC(C)C)C(=O)N[C@@H](CC(C)C)C(=O)N[C@@H](CCCCN)C(=O)N[C@@H](CCCCN)C(=O)N1CCC[C@H]1C(=O)N[C@@H](CC(C)C)C(=O)N[C@@H](CCCCN)C(=O)N[C@@H](CC(C)C)C(=O)N[C@@H](CC(C)C)C(=O)N[C@@H](CCCCN)C(N)=O | human red blood cells | haemolysis |  | 6 h, 37 °C, 5% haematocrit in PBS |  | MHC10 | > 160 µM
O=c1ccc2ccccc2o1 | NHEK |  | keratinocyte growth medium | concentration not given, 24 h, oxidative stress panel |  | DNA structure change, chance of response | 64.9%
CN(CCC=C1c2ccccc2CCc2ccccc21)N=O | TK6 expressing CYP2C19 |  |  | 0.5 µM, 4 h, without S9 | reference: vehicle | relative survival | 11.7%
CC1(C)CCC(c2ccc(Cl)cc2)=C(CN2CCN(c3ccc(C(=O)NS(=O)(=O)c4ccc(N[C@H](CCN5CCOCC5)CSc5ccccc5)c(S(=O)(=O)C(F)(F)F)c4)cc3)CC2)C1 | African green monkey cells |  |  | 5 days |  | CC50 | 4.73 µM
O=S(=O)(c1ccc(O)cc1)c1ccc(O)cc1 | HepG2 spheroids | annexin V-FITC/PI flow cytometry |  | 1 µM, 24 h |  | necrotic cells | 6.37 ± 1.71%
CC(C)(C)c1ccc(C(O)CCCN2CCC(C(O)(c3ccccc3)c3ccccc3)CC2)cc1 (stereo not shown) | African green monkey cells |  |  | 5 days |  | CC50 | 5.13 µM
CCOP(=S)(OCC)Oc1cc(C)nc(C(C)C)n1 | rat hepatoma cells | cell confluency |  | 24 h, nominal concentration | reference: baseline IC10 over IC10 | toxic ratio | 0.77
Fc1ccc([C@@H]2CCNC[C@H]2COc2ccc3c(c2)OCO3)cc1 | African green monkey cells |  |  | 5 days |  | CC50 | 16.6 µM
Nc1nc2c(ncn2[C@@H]2O[C@@H]3COP(=O)(O)O[C@H]4[C@@H](O)[C@H](n5cnc6c(N)ncnc65)O[C@@H]4COP(=O)(O)O[C@@H]2[C@@H]3O)c(=O)[nH]1 | HFF-1 |  |  | 100 µg/mL |  | viability | 90.9%
Cc1ccc(OCCc2ccc(C3CC3)cc2)c(C(N)=O)c1 | HepG2 |  |  | 3 (unit not given) | reference: CC50 glucose over CC50 galactose | selectivity ratio | 4 and > 4
